Measured values collected from several papers.
pEC50, pIC50: −log10 of the molar value.
Cell line: OVCAR-3

CCCN1CCN(c2ccc3nc(-c4ccc5nc(-c6cc(OC)ccc6OC)[nH]c5c4)[nH]c3c2)CC1
growth percent (SRB; 10 µM, 48 h): 122%

O=C(Nc1nnc2n3c(=S)[nH][nH]c3nc(-c3ccc(Cl)cc3)c1-2)c1ccccc1
cell growth (SRB; 10 µM, NCI60 single-dose screen; reference: untreated): 118%

Cc1ccc(-c2cc(C(F)(F)F)nn2-c2ccc(S(N)(=O)=O)cc2)cc1
growth inhibition (WST-1; up to 25 µM, 2 days): no effect

Cc1n[nH]c2nc(-c3ccc(Cl)cc3)c3c(NC(=O)c4ccccc4)nnc-3n12
cell growth (SRB; 10 µM, NCI60 single-dose screen; reference: untreated): 117%

CCCCN1CCN(c2ccc3[nH]c(-c4ccc5[nH]c(-c6cc(OC)c(OC)c(OC)c6)nc5c4)nc3c2)CC1
growth percent (SRB; 10 µM, 48 h): 67%

CSc1nc(-c2ccc(Cl)cc2)c2c(NC(=O)c3ccccc3)nnc-2[nH]1
cell growth (SRB; 10 µM, NCI60 single-dose screen; reference: untreated): 112%

O=C1NCCc2[nH]c(-c3ccncc3)cc21
pIC50 (MTS; NCI60 panel): 5.60

CCOC(=O)CSc1nc(-c2ccc(Cl)cc2)c2c(NC(=O)c3ccccc3)nnc-2[nH]1
cell growth (SRB; 10 µM, NCI60 single-dose screen; reference: untreated): 100%

C=CCn1c(=O)c2cnc(Nc3ccc(N4CCN(C)CC4)cc3)nc2n1-c1ccc2c(n1)[C@@](O)(CC)CC2
γH2AX-positive cells (flow cytometry; concentration not given, EdU-positive S phase): 5.6%

CCCCN1CCN(c2ccc3[nH]c(-c4ccc5[nH]c(-c6ccc(OCC)c(OCC)c6)nc5c4)nc3c2)CC1
growth percent (SRB; 10 µM, 48 h): -87.3%

Cn1cncc1C1=CN(c2ncnc3[nH]cnc23)CCS1
GI50 (ovarian cancer): 28.8 µM

C#C[C@@]1(O)[C@@H](CO)O[C@@H](n2cc(F)c3c(N)ncnc32)[C@@H]1O
TGI (SRB; NCI-60 screen): > 100 µM

O=C(Nc1nnc2[nH]c(=S)[nH]c(-c3ccc(Cl)cc3)c1-2)c1ccccc1
cell growth (SRB; 10 µM, NCI60 single-dose screen; reference: untreated): 104%

CC(=O)O[C@H]1C(=O)[C@@]2(C)[C@H]([C@H](OC(=O)c3ccccc3)[C@]3(O)C[C@H](OC(=O)[C@H](O)[C@@H](NC(=O)c4ccccc4)c4ccccc4)C(C)=C1C3(C)C)[C@]1(OC(C)=O)CO[C@@H]1C[C@@H]2O
TGI (sulforhodamine B; Ovarian cancer; NCI60 screen): 0.16 µM

CCOc1ccc(-c2nc3cc(-c4nc5cc(N6CCN(C)CC6)ccc5[nH]4)ccc3[nH]2)cc1OCC
growth percent (SRB; 10 µM, 48 h): -13.3%

C#C[C@@]1(O)[C@@H](CO)O[C@@H](n2ccc3c(N)ncnc32)[C@@H]1O
TGI (SRB; NCI-60 screen): 12 µM

CCCCN1CCN(c2ccc3nc(-c4ccc5nc(-c6cc(OC)ccc6OC)[nH]c5c4)[nH]c3c2)CC1
growth percent (SRB; 10 µM, 48 h): 116%

COc1cnc2cccc(N3CCc4c(cc(Cn5ccnc5C)cc4-c4cn(C)nc4C(F)(F)F)C3=O)c2c1
pEC50 (cell growth, inhibitor; 120 h): 5.36

COc1ccc(OC)c(-c2nc3ccc(-c4nc5ccc(N6CCN(C)CC6)cc5[nH]4)cc3[nH]2)c1
growth percent (SRB; 10 µM, 48 h): 111%

O=C(Nc1nnc2n3c(nc(-c4ccc(Cl)cc4)c1-2)SCC3=O)c1ccccc1
cell growth (SRB; 10 µM, NCI60 single-dose screen; reference: untreated): 104%

Excerpt of the above:
O=C1NCCc2[nH]c(-c3ccncc3)cc21
pIC50 (MTS; NCI60 panel): 5.60

CCCCN1CCN(c2ccc3[nH]c(-c4ccc5[nH]c(-c6ccc(OCC)c(OCC)c6)nc5c4)nc3c2)CC1
growth percent (SRB; 10 µM, 48 h): -87.3%

CCOC(=O)CSc1nc(-c2ccc(Cl)cc2)c2c(NC(=O)c3ccccc3)nnc-2[nH]1
cell growth (SRB; 10 µM, NCI60 single-dose screen; reference: untreated): 100%
